{"data": "Assay results gathered from unrelated publications", "B1": "bicyclic; chain AATCHCRRSCYSTEYSYGTCTVMGINHRFCCL (also: bicyclic or more (positions not given here))", "note": "Lines come from different studies, so protocols differ. Numbers after ± are the reported error. No end group written: not given here."}
{"Molecule": "CC(C)/N=c1\\cc2n(-c3ccc(Cl)cc3)c3ccccc3nc-2cc1Nc1ccc(Cl)cc1", "test": "shake-flask", "test system": "Captex 355", "setting": "37 °C", "endpoint": "thermodynamic solubility", "result": "13.3 ± 0.38 mg/g"}
{"Molecule": "CSc1cc(C)nc(SC)c1NC(=O)CN1CCN(CCSc2nc3ccccc3[nH]2)CC1", "test system": "mouse Crl:CD1 (ICR) female, cerebrum", "setting": "intranasal repeated, 32.4 µg in 0.01 N HCl, 15 min", "endpoint": "concentration", "result": "8.9 ng/g"}
{"Molecule": "Cc1nc2cccc(OCC(C)(C)C(=O)NC(C)C)c2c(N)c1C(=O)O", "test system": "Sprague-Dawley rat both sexes, plasma", "setting": "dietary, 60 mg/kg/day, day 90", "endpoint": "Cmax", "result": "97 ng/mL"}
{"Molecule": "C/C(=C\\CC/C(C)=C/CC[C@]1(C)CCc2cc(O)cc(C)c2O1)CCC=C(CF)CF", "test system": "heat-inactivated mouse liver microsomes", "setting": "1 µM, up to 10 min, 37 °C", "endpoint": "stability", "result": "stable"}
{"Molecule": "CC(C)[C@H](NC(=O)[C@@H]1CCCN1C(=O)[C@H](CCCNC(=N)N)NC(=O)[C@H](CS)NC(=O)[C@H](Cc1c[nH]c2ccccc12)NC(=O)[C@H](CCCNC(=N)N)NC(=O)[C@@H](Cc1ccccc1)NC(=O)[C@H](Cc1c[nH]cn1)NC(=O)[C@H](CCC(=O)O)NC(=O)[C@H](CS)NC(=O)[C@H](CS)NC(=O)[C@H](CCCCN)NC(=O)[C@@H]1CC(=O)N[C@@H](CCCNC(=N)N)C(=O)N[C@@H](C(C)C)C(=O)N[C@@H](CC(=O)O)C(=O)N[C@H](Cc2ccc(O)cc2)C(=O)N1)C(N)=O [technetium-99m labelled]", "test system": "C57 mouse, female, B16/F1 melanoma, bone", "setting": "intravenous, 2 h, together with: NDP-MSH 10 µg co-injected", "endpoint": "tissue uptake", "result": "0.46 ± 0.1 %ID/g"}
{"Molecule": "Cn1cc(-c2cn3nccc3c(-c3cnn([C@]4(CC#N)C[C@@H](C#N)C4)c3)n2)cn1", "test system": "healthy Japanese human, plasma", "setting": "400 mg once daily, day 1, multiple dose, fed, geometric mean", "endpoint": "dose-normalized Cmax", "result": "1.7 ng/mL/mg"}
{"Molecule": "COc1c(N2CCNC(C)C2)c(F)cc2c(=O)c(C(=O)NCCCN(C)C)cn(C3CC3)c12 (racemic)", "test": "refers to: GFX formed plus unchanged prodrug", "test system": "pigmented rabbits, vitreous humor", "setting": "topical eye drop, 30 µL of 35 mg/mL, 1 h", "scale": "reference: prodrug over GFX 5 mg/mL", "endpoint": "tissue level ratio", "result": "3.6 fold"}
{"Molecule": "[2H]C([2H])([2H])Oc1cc2c(cc1OC([2H])([2H])[2H])C1CC(=O)C(CC(C)C)CN1CC2 (stereo not drawn)", "test": "refers to: deuterated α-HTBZ", "test system": "healthy human volunteers, plasma", "setting": "oral, 18 mg single dose, standard meal", "endpoint": "dose-normalized AUC(0-inf)", "result": "16.4 ng·h/mL"}
{"Molecule": "des-acyl ghrelin (human)", "test": "capillary depletion", "test system": "mouse, brain parenchyma", "setting": "intravenous, 10 min", "endpoint": "parenchyma/serum ratio", "result": "10.4 ± 1.95 µL/g"}
{"Molecule": "CCCCOC(=O)N1CCN(C(=O)[C@H](CP(=O)(O)O)NC(=O)c2cc(N3CC[C@H](OC)C3)nc(-c3ccccc3)n2)CC1", "test system": "healthy human, plasma", "setting": "subcutaneous, 4 mg, placebo i.v.", "scale": "geometric mean", "endpoint": "Vd/F", "result": "52.2 L"}
{"Molecule": "CCCCCCCCC/C=C/C(=O)CCc1ccc(O)c(OC)c1", "test system": "rat, small intestine site 4 contents", "setting": "oral, dose not given, 2 h, no β-glucuronidase treatment", "scale": "reference: ingested amount", "endpoint": "recovery", "result": "0.19%"}
{"Molecule": "O=C1Cc2cc(CCN3CCN(c4nsc5ccccc45)CC3)c(Cl)cc2N1", "test system": "male Hartley guinea pig, anaesthetized", "setting": "intravenous infusion, 1 mg/kg, 10 min infusion", "scale": "reference: baseline", "endpoint": "QTc change", "result": "9.1 ± 1%"}
{"Molecule": "CC1(C)Oc2cc3oc(=O)ccc3cc2C[C@@H]1O", "test system": "CD-1 mouse, male", "setting": "oral gavage, 80 mg/kg daily, 4 weeks, subchronic safety study", "endpoint": "body weight", "result": "36.5 ± 1.71 g"}
{"Molecule": "O=C(CCCCCCC(=O)Nc1ccccc1)NO", "test system": "human patients, serum", "setting": "oral, 1700 mg once daily", "endpoint": "AUC(0-8 h)", "result": "21.2 µM·h"}
{"Molecule": "CO[C@H]1C[C@@H]2CC[C@@H](C)[C@@](O)(O2)C(=O)C(=O)N2CCCC[C@H]2C(=O)O[C@H]([C@H](C)C[C@@H]2CC[C@@H](O)[C@H](OC)C2)CC(=O)[C@H](C)/C=C(\\C)[C@@H](O)[C@@H](OC)C(=O)[C@H](C)C[C@H](C)/C=C/C=C/C=C/1C", "test": "LC-MS/MS", "test system": "healthy dogs, whole blood", "setting": "oral, 0.1 mg/kg once daily, 5 days", "endpoint": "AUC(0-48h)", "result": "126 ± 27.1 ng·h/mL"}
{"Molecule": "CC[C@H](C)[C@@H]1NC(=O)[C@H](Cc2ccc(O)cc2)NC(=O)[C@@H](N)CSSC[C@@H](C(=O)N2CCC[C@H]2C(=O)N[C@@H](CC(C)C)C(=O)NCC(N)=O)NC(=O)[C@H](CC(N)=O)NC(=O)[C@H](CCC(N)=O)NC1=O", "test": "microdialysis, radioimmunoassay", "test system": "C57BL/6J male mice, wild type, hippocampus extracellular fluid", "setting": "intranasal, 12 µg", "endpoint": "Cmax", "result": "2.7 ± 1.24 pg/sample"}
{"Molecule": "C/C=C(\\C)C(=O)NCC(=O)O", "test system": "human hemodialysis patients, plasma", "setting": "pre-treatment", "scale": "reference: hemodialysis over normal subjects", "endpoint": "total plasma concentration ratio", "result": 27}
{"Molecule": "B1", "test": "analytical ultracentrifugation", "test system": "10 mM sodium phosphate", "setting": "40 to 160 µM, pH 7.4, 20 °C", "endpoint": "sedimentation coefficient s20,w", "result": "~0.8 S"}
{"Molecule": "O=C(O)c1cc(/N=N/c2ccc(S(=O)(=O)Nc3ccccn3)cc2)ccc1O", "test": "shake-flask", "test system": "soybean oil", "setting": "37 °C", "endpoint": "thermodynamic solubility", "result": "0.01 mg/g"}
{"Molecule": "COc1cccc2c1C(=O)c1c(O)c3c(c(O)c1C2=O)C[C@@](O)(C(=O)CO)C[C@@H]3O[C@H]1C[C@H](N)[C@H](O)[C@H](C)O1", "test system": "mouse, E0771 tumour-bearing, tumor", "setting": "intravenous, 92 µmol/kg", "endpoint": "Cmax", "result": "21.4 µM"}
{"Molecule": "O=c1c(-c2ccccc2)c1-c1ccccc1", "target or system": "cysteine peptide Ac-RFAACAA-COOH", "test": "peptide depletion, DPRA RapidFire-MS/MS", "setting": "24 h, pH 7.5, room temperature, together with: 5.0 µM cysteine peptide", "endpoint": "IC50", "result": "23.8 µM"}
{"Molecule": "C[C@]12CC[C@@H]3c4ccc(O)cc4CC[C@H]3[C@@H]1C[C@@H](O)[C@@H]2O", "test": "GC-MS", "test system": "breast cancer women on NSAI, serum", "setting": "vaginal, 0.03 mg daily, 6 h, day 28", "endpoint": "maximum serum concentration", "result": "0.0395 ng/mL"}
{"Molecule": "CCCC[C@H](NC(C)=O)C(=O)N[C@H]1CCC(=O)NC[C@@H](C(=O)N[C@@H](Cc2c[nH]c3ccccc23)C(N)=O)NC(=O)[C@H](CCCNC(=N)N)NC(=O)[C@@H](Cc2ccccc2)NC(=O)[C@H](Cc2c[nH]cn2)NC1=O", "test system": "healthy human, both sexes, plasma", "setting": "subcutaneous, 3.0 mg once daily, day 1, geometric mean", "endpoint": "Vd/F", "result": "242 L"}
{"Molecule": "O=C1N=C(N2CCOCC2)CN1c1ccc(Cl)cc1", "test system": "beagle dog, male, plasma", "setting": "oral, 30 mg/kg, tablets, fasted", "endpoint": "apparent oral clearance", "result": "5.48 mL/min/kg"}
{"Molecule": "COC1=CC(=O)C[C@@H](C)[C@]12Oc1c(Cl)c(OC)cc(OC)c1C2=O", "test": "shake-flask", "test system": "soybean oil", "setting": "37 °C", "endpoint": "thermodynamic solubility", "result": "0.5 ± 0.06 mg/g"}
{"Molecule": "COc1ccc(-c2coc3cc(O)ccc3c2=O)cc1", "test": "mass spectrometry", "test system": "Caco-2", "setting": "40 µM, 6 h", "endpoint": "Papp A→B", "result": "23.8 ×10⁻⁶ cm/s"}
{"Molecule": "CC(C)(CC(=O)N1CCCC1)NCC(=O)N1C[C@@H](F)C[C@H]1C#N", "test system": "Chinese type 2 diabetes patients, plasma", "setting": "oral, 100 mg once daily, multiple doses", "endpoint": "Cmax at steady state", "result": "256 ng/mL"}
{"Molecule": "COC(=O)Nc1nc2ccc(Sc3ccccc3)cc2[nH]1", "test": "shake-flask", "test system": "PEG400", "setting": "37 °C", "endpoint": "thermodynamic solubility", "result": "2.83 ± 0.07 mg/g"}
{"Molecule": "Cc1nc(-c2ccc(OCC(C)C)c(C#N)c2)sc1C(=O)O", "test system": "healthy men, plasma", "setting": "oral, 40 mg, geometric mean ratio, together with: verinurad 10 mg", "scale": "reference: with over without verinurad", "endpoint": "Cmax ratio", "result": "87.9%"}
{"Molecule": "CCCCCCC#CC(=O)OC", "target or system": "cysteine peptide Ac-RFAACAA-COOH", "test": "DPRA RapidFire-MS/MS", "setting": "24 h, pH 7.5, together with: 5.0 µM cysteine peptide", "endpoint": "maximal peptide depletion", "result": "-40%"}
{"Molecule": "CCCCN1CCC(N(Cc2ccccc2)C(=O)Nc2ccc(Cl)c(Cl)c2)CC1", "test system": "CD-1 female mouse, liver microsomes", "setting": "0.8 µM", "endpoint": "intrinsic clearance", "result": "25 mL/min/kg"}
{"Molecule": "CCCCN(CCCC)CCC(O)c1cc2c(Cl)cc(Cl)cc2c2cc(C(F)(F)F)ccc12 (stereo not drawn)", "test": "shake-flask", "test system": "polysorbate 80", "setting": "37 °C", "endpoint": "thermodynamic solubility", "result": "25 ± 1.6 mg/g"}
{"Molecule": "O=C(NC[C@H]1CN(c2ccc(N3CCOCC3=O)cc2)C(=O)O1)c1ccc(Cl)s1", "test system": "Sprague-Dawley rat, male, plasma", "setting": "oral, 10 mg/kg", "endpoint": "terminal half-life", "result": "3.77 ± 0.36 h"}
{"Molecule": "CC(=O)Oc1ccc(/C=C\\C(=O)Nc2ccc(S(N)(=O)=O)cc2)cc1OC(C)=O", "test system": "n-octanol/PBS", "setting": "pH 7.4", "endpoint": "log P", "result": 0.199}
{"Molecule": "CNCc1ccc(-c2[nH]c3cc(F)cc4c3c2CCNC4=O)cc1", "test system": "human patients, plasma", "setting": "oral, 840 mg twice daily, day 15, steady state, arithmetic mean", "endpoint": "AUC(0-t)", "result": "29000 ng·h/mL"}
{"Molecule": "CCOc1c([C@H](C)n2nc(C)c3c(N)ncnc32)cc(Cl)c(F)c1[C@@H]1CNC(=O)C1", "test system": "Japanese patients, plasma", "setting": "oral, 20 mg once daily, cycle 1 day 15", "endpoint": "Vz/F", "result": "31.2 ± 9.8 L"}
{"Molecule": "CC(=O)Oc1ccccc1C(=O)O", "test system": "male Hartley guinea pig, anaesthetized", "setting": "intravenous infusion, 1 mg/kg, 10 min infusion", "scale": "reference: baseline", "endpoint": "QTc change", "result": "0.5 ± 0.8%"}
{"Molecule": "CC(C)CCCCC(=O)N[C@@H](CCN)C(=O)N[C@H](C(=O)N[C@@H](CCN)C(=O)N[C@H]1CCNC(=O)[C@H]([C@@H](C)O)NC(=O)[C@H](CCN)NC(=O)[C@H](CCN)NC(=O)[C@H](CC(C)C)NC(=O)[C@@H](Cc2ccccc2)NC(=O)[C@H](CCN)NC1=O)[C@@H](C)O", "test": "UPLC-MS/MS", "test system": "intensive care patients AKI, plasma", "setting": "iv, dose not given, 6 h post-dose, steady state, polymyxin B dosing", "endpoint": "mid-interval concentration", "result": "600 ± 200 ng/mL"}
{"Molecule": "Cn1c(-c2ccc(C(N)=O)cc2F)nnc1C(C)(C)Oc1c(F)cc(Cl)cc1F", "test system": "young Japanese subjects, plasma", "setting": "oral, 20 mg single dose, day 1", "endpoint": "AUC(0-inf) range", "result": "1330 to 3320 ng·h/mL"}
{"note": "A few entries again:"}
{"Molecule": "COc1ccc(-c2coc3cc(O)ccc3c2=O)cc1", "test": "mass spectrometry", "test system": "Caco-2", "setting": "40 µM, 6 h", "endpoint": "Papp A→B", "result": "23.8 ×10⁻⁶ cm/s"}
{"Molecule": "CC(C)(CC(=O)N1CCCC1)NCC(=O)N1C[C@@H](F)C[C@H]1C#N", "test system": "Chinese type 2 diabetes patients, plasma", "setting": "oral, 100 mg once daily, multiple doses", "endpoint": "Cmax at steady state", "result": "256 ng/mL"}
{"Molecule": "COC(=O)Nc1nc2ccc(Sc3ccccc3)cc2[nH]1", "test": "shake-flask", "test system": "PEG400", "setting": "37 °C", "endpoint": "thermodynamic solubility", "result": "2.83 ± 0.07 mg/g"}
